Assay results of several laboratories.
Protocols differ between the studies behind these lines. “And” joins repeats or separate records; there may be more than shown. ± marks the error that the study gave.

| Compound | test | system | setting | endpoint | result |
| --- | --- | --- | --- | --- | --- |
| COc1cnc2cccc(N3CCc4c(cc(Cn5ccnc5)cc4-c4cn(C)nc4C(F)(F)F)C3=O)c2c1 | – | CD-1 mice | intraperitoneal, 150 mg/kg once daily, day 1 | body weight | 28 ± 1 g |
| O=C1NC2(CC2)COc2ncc(F)cc2[C@H]2COCCN2c2ccn3ncc1c3n2 | – | Sprague-Dawley rat, female, thymus | oral, 10 mg/kg/day, 4 weeks, end of treatment | organ-to-brain weight ratio | 31.1 ± 7.65% |
| CC(C)(CCCC/C=C/CCCCCC(C)(C)C(=O)O)C(=O)O | – | beagle dog, both sexes | oral, dose not given, 5 h | plasma concentration | 14000 ng/mL |
| CC(C)[C@@H]1NC(=O)CNC(=O)[C@H](CC(N)=O)NC(=O)[C@H](CCCNC(=N)N)NC(=O)[C@H](Cc2ccc(O)cc2)NC(=O)[C@H](C(C)C)NC(=O)[C@@H](NC(=O)[C@@H](NC(=O)[C@H](CC(N)=O)NC(=O)[C@H](Cc2c[nH]c3ccccc23)NC(=O)[C@H](C)NC(=O)[C@H](Cc2ccccc2)NC(=O)CNC(=O)[C@H](CCCCN)NC(=O)[C@H](Cc2ccccc2)NC(=O)[C@H](Cc2ccccc2)NC(=O)[C@H](CCCCN)NC(=O)OCC2c3ccccc3-c3ccccc32)C(C)C)CSSC[C@@H](C(=O)N[C@@H](Cc2c[nH]cn2)C(=O)N[C@@H](CCCNC(=N)N)C(=O)N[C@@H](CCCNC(=N)N)C(=O)N[C@@H](C)C(=O)N[C@@H](CC(N)=O)C(N)=O)NC(=O)[C@H](C(C)C)NC(=O)[C@H](CCCNC(=N)N)NC1=O | – | ICR mice, blood | intraperitoneal, 10 mg/kg, day 5 | plateletcrit | 0.03% |
| CC(C)[C@H](NC(=O)[C@@H](NC(=O)[C@H](CCCNC(=N)N)NC(=O)[C@H](CCCNC(=N)N)NC(=O)[C@H](CCCNC(=N)N)NC(=O)[C@H](CCC(N)=O)NC(=O)[C@H](CCCNC(=N)N)NC(=O)[C@H](CCCNC(=N)N)NC(=O)[C@H](CCCCN)NC(=O)[C@H](CCCCN)NC(=O)[C@H](CCCNC(=N)N)NC(=O)CN)[C@@H](C)O)C(=O)N[C@H](C(=O)N[C@@H](CO)C(=O)N1CCC[C@H]1C(=O)O)[C@@H](C)O | – | ICR mice, female, brain | intranasal, 10 mg/kg daily, 4 weeks | organ weight | 0.577 ± 0.05 g |
| CC(C)C[C@H](NC(=O)CNC(=O)[C@H](CCC(N)=O)NC(=O)[C@H](CC(C)C)NC(=O)[C@H](CC(C)C)NC(=O)[C@H](CCCNC(=N)N)NC(=O)[C@H](CCC(N)=O)NC(=O)[C@H](CC(C)C)NC(=O)[C@H](CCCNC(=N)N)NC(=O)[C@H](C)NC(=O)CNC(=O)[C@H](CCC(=O)O)NC(=O)[C@H](CCCNC(=N)N)NC(=O)[C@H](CC(C)C)NC(=O)[C@H](CCCNC(=N)N)NC(=O)[C@H](CO)NC(=O)[C@H](CC(C)C)NC(=O)[C@H](CCC(=O)O)NC(=O)[C@H](CO)NC(=O)[C@@H](NC(=O)[C@H](Cc1ccccc1)NC(=O)[C@@H](NC(=O)CNC(=O)[C@H](CC(=O)O)NC(=O)C(C)(C)NC(=O)[C@@H](N)Cc1c[nH]cn1)[C@@H](C)O)[C@@H](C)O)C(=O)N[C@@H](CC(C)C)C(=O)N[C@@H](CCC(N)=O)C(=O)NCC(=O)N[C@@H](CC(C)C)C(=O)N[C@H](C(=O)NCC(=O)N[C@@H](CCCCNC(=O)COCCOCCNC(=O)COCCOCCNC(=O)CC[C@H](NC(=O)CCCCCCCCCCCCCCCCC(=O)O)C(=O)O)C(N)=O)C(C)C | – | DIO C57BL/6J mice | sc, 300 nmol/kg twice daily, 8 days | water intake | no effect |
| CC(C)=CCC/C(C)=C/CCn1cc(CC(P(=O)(O)O)P(=O)(O)O)nn1 | – | CD-1 mouse, plasma | intravenous, 0.5 mg/kg, single dose | AUC(0-t) | 1380 ± 140 ng·h/mL |
| C=Cc1c(C)c2cc3nc(c(CC(=O)[O-])c4[n-]c(cc5nc(cc1[n-]2)C(C)=C5CC)c(C)c4C(=O)[O-])C(CCC(=O)[O-])C3C.[Cu+2].[Na+].[Na+].[Na+] (stereo not shown) | – | Wistar rat, female | oral, 1000 mg/kg daily, 28 days | serum ALT | 36.8 ± 7.57 U/L |
| CC[C@H](C)[C@H](NC(=O)[C@H](CCCN)NC(=O)[C@H](CCCNC(=N)N)NC(=O)[C@@H]1CCCN1C(=O)[C@@H]1CCCN1C(=O)[C@H](CCCNC(=N)N)NC(=O)[C@@H]1CCCN1C(=O)[C@H](CCCNC(=N)N)NC(=O)[C@@H]1CCCN1C(=O)[C@H](CC(C)C)NC(=O)[C@H](Cc1ccc(O)cc1)NC(=O)[C@@H]1CCCN1C(=O)[C@@H]1CCCN1C(=O)[C@H](CCCCN)NC(=O)[C@H](CC(=O)O)NC(=O)[C@@H](N)C(C)C)C(=O)N[C@@H](Cc1ccc(O)cc1)C(=O)N[C@@H](CC(N)=O)C(=O)N[C@@H](CCCN)C(N)=O | competitive ELISA | mouse CD-1, female, plasma | subcutaneous, 4.34 µmol/kg | AUMC(0-inf) | 4.8 µg·h²/mL |
| CN1Cc2cc(Cl)ccc2-n2c(nnc2C2CCN(c3cccc([18F])n3)CC2)C1 | – | C57BL/6 mouse male, bone | intravenous, 3.7 MBq, 5 min | tissue uptake | 2.47 ± 0.33 %ID/g |
| CC[C@H](C)[C@H](NC(=O)[C@H](CCCCN)NC(=O)CNC(=O)[C@H](CC(C)C)NC(=O)[C@H](Cc1ccccc1)NC(=O)[C@H](CCCCN)NC(=O)[C@H](CO)NC(=O)[C@H](Cc1ccccc1)NC(=O)[C@H](Cc1c[nH]c2ccccc12)NC(=O)[C@H](CCC(N)=O)NC(=O)[C@@H](NC(=O)[C@H](Cc1ccccc1)NC(=O)CCCCCNC(=O)CN1CCN(CC(=O)O)CCN(CC(=O)O)CCN(CC(=O)O)CC1)C(C)C)C(=O)N[C@@H](CCC(=O)O)C(=O)N1CCC[C@H]1C(=O)N[C@@H](CC(=O)O)C(=O)N[C@H](C(=O)N[C@@H](CO)C(=O)N[C@@H](CCC(N)=O)C(=O)N[C@H](C(=O)N[C@@H](CCC(N)=O)C(=O)N[C@@H](CC(=O)O)C(=O)N1CCC[C@H]1C(=O)N[C@@H](CC(N)=O)C(=O)N[C@@H](CC(=O)O)C(=O)N[C@@H](CCC(N)=O)C(=O)N[C@@H](Cc1ccc(O)cc1)C(=O)N[C@@H](CCC(=O)O)C(=O)N1CCC[C@H]1C(=O)N[C@@H](Cc1ccccc1)C(=O)O)C(C)C)C(C)C [copper-64 labelled] | dynamic PET | mouse both sexes, CT26 tumour, checkpoint inhibitor-treated, tumour | intravenous, 100 µCi/mouse, 130 s | SUVmean | 2.46 SUV |
| CC[C@H](C)[C@H](NC(=O)[C@H](C)NC(=O)[C@H](CCCCN)NC(=O)[C@H](CC(C)C)NC(=O)[C@@H](N)Cc1ccccc1)C(=O)N[C@@H](CCCCN)C(=O)N[C@@H](CCCCN)C(=O)N[C@@H](Cc1ccccc1)C(=O)NCC(=O)N[C@@H](CCCCN)C(=O)N[C@@H](CCC(=O)O)C(=O)N[C@@H](Cc1ccccc1)C(=O)N[C@@H](CCCCN)C(=O)N[C@@H](CCCCN)C(=O)N[C@H](C(=O)NCC(=O)N[C@@H](C)C(=O)N[C@@H](CCCCN)C(=O)N[C@@H](CC(C)C)C(=O)N[C@@H](CCCCN)C(=O)O)[C@@H](C)CC | – | human red blood cells | 2 mg/L, 1 h | hemolysis | 0.327% and 1.12% |
| CCn1ccc(-c2cc(-c3cnn(C)c3)cc([C@@H](C)NC(=O)c3cc(OCCN(C)C)ccc3C)c2)n1 | – | mouse C57BL/6J, male, plasma | oral, 50 mg/kg | AUC extrapolated percentage | 0.0336% |

For quick reference, copied from above:
| Compound | test | system | setting | endpoint | result |
| --- | --- | --- | --- | --- | --- |
| CC(C)[C@H](NC(=O)[C@@H](NC(=O)[C@H](CCCNC(=N)N)NC(=O)[C@H](CCCNC(=N)N)NC(=O)[C@H](CCCNC(=N)N)NC(=O)[C@H](CCC(N)=O)NC(=O)[C@H](CCCNC(=N)N)NC(=O)[C@H](CCCNC(=N)N)NC(=O)[C@H](CCCCN)NC(=O)[C@H](CCCCN)NC(=O)[C@H](CCCNC(=N)N)NC(=O)CN)[C@@H](C)O)C(=O)N[C@H](C(=O)N[C@@H](CO)C(=O)N1CCC[C@H]1C(=O)O)[C@@H](C)O | – | ICR mice, female, brain | intranasal, 10 mg/kg daily, 4 weeks | organ weight | 0.577 ± 0.05 g |
| CC(C)C[C@H](NC(=O)CNC(=O)[C@H](CCC(N)=O)NC(=O)[C@H](CC(C)C)NC(=O)[C@H](CC(C)C)NC(=O)[C@H](CCCNC(=N)N)NC(=O)[C@H](CCC(N)=O)NC(=O)[C@H](CC(C)C)NC(=O)[C@H](CCCNC(=N)N)NC(=O)[C@H](C)NC(=O)CNC(=O)[C@H](CCC(=O)O)NC(=O)[C@H](CCCNC(=N)N)NC(=O)[C@H](CC(C)C)NC(=O)[C@H](CCCNC(=N)N)NC(=O)[C@H](CO)NC(=O)[C@H](CC(C)C)NC(=O)[C@H](CCC(=O)O)NC(=O)[C@H](CO)NC(=O)[C@@H](NC(=O)[C@H](Cc1ccccc1)NC(=O)[C@@H](NC(=O)CNC(=O)[C@H](CC(=O)O)NC(=O)C(C)(C)NC(=O)[C@@H](N)Cc1c[nH]cn1)[C@@H](C)O)[C@@H](C)O)C(=O)N[C@@H](CC(C)C)C(=O)N[C@@H](CCC(N)=O)C(=O)NCC(=O)N[C@@H](CC(C)C)C(=O)N[C@H](C(=O)NCC(=O)N[C@@H](CCCCNC(=O)COCCOCCNC(=O)COCCOCCNC(=O)CC[C@H](NC(=O)CCCCCCCCCCCCCCCCC(=O)O)C(=O)O)C(N)=O)C(C)C | – | DIO C57BL/6J mice | sc, 300 nmol/kg twice daily, 8 days | water intake | no effect |
